Measured values from different studies.
Numbered parts are unrelated; each lists some results of a single study. Substitutions count along the parent as printed.

Set 1 — method: RNA Bind-n-Seq; molecule type: RNA; medium: in vitro; concentration: 365 nM; baseline: no-protein control; direction: higher = stronger binding
Target: RNA binding protein fox-1 homolog 2, RRM domain, GST-SBP tag (RBFOX2, Homo sapiens, UniProt O43251-10, residues 100-194)
Setting: natural RNA segment, single round, ends assumed
Construct (chain): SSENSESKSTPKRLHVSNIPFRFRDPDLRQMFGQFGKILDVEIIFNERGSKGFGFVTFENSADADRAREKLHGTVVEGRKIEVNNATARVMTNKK
Oligonucleotide	RBNS enrichment (R)
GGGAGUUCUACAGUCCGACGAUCAGACCUUGUUUUGAGGAUUUUACAAGACCUUUGUAGCGAUUAGAUUUUUUUUCUACAUUGAAAAUAGAAACUGCUUCCUUUCUUCUUUCCAGUCAGCUAUUGGUCUUUCCUGGAAUUCUCGGGUGCCAA	0.403
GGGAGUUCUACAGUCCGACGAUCAGCAUCUUUUAUUGCAUUGGAAAGACUGGCAAAGUCUUUUGGAUGGGUUGGGAGAUGUGGCUGGAAAGUACUUUGGAAAAUAUACAAUCAAGAUAUCUCAUGGCAUAUUAUGGAAUUCUCGGGUGCCAA	0.354
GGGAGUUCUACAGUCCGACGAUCCCCUUUAAAAACUAACCCACUGAAUAUUCCGUGUGAUCUAGAACAGUGUGGCAGCUUUCACAGCACAGGACCGUUCAUCGGGGGCCUAAACGUUUCCCUCAGCUCUGUCAUGGAAUUCUCGGGUGCCAA	0.295
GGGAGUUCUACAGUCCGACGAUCCAGGACGACUUGGAAAAAAAGGCGGCGGACAGUUGGCCAGAGGGAUGGAGACUGGUGGGGACGCCCCCGCCUCCCUGUCCCCCGUUUCACACACUGGACACCAUCACCUCUGGAAUUCUCGGGUGCCAA	0.192
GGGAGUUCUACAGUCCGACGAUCAUUAAAAAAAAAAAGAAAAGGAAAAAAGUAAAUGAAGCCCAACUACCUAACCCUUUCUUAUUUGUAUUUGUUUUAGUAUUGUGAAGUUGUGUUAAAUAGUACUAGCUAGAUGGAAUUCUCGGGUGCCAA	0.554
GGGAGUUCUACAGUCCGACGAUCUAAAUUUUUAACAAAGUUUGUACAUUUUUUAUGAAAGUUACUAGUAAUGCUUUACUAAGUAGUGCAAUGAAUUUUUAUUUUUAAUCCCUGUGCCCAAUUUUGGAGUUUGAUGGAAUUCUCGGGUGCCAA	0.785
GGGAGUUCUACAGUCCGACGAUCGGACACUAGGAGACUGGUUAGGACAAAAAGACCUUCUCCCUAGCCCUUCUACCCCACCUGACCUCUGCAAGAGGGGGCAUUGAUACAUCAUCGGGAAAAAACUUUGCUCCUGGAAUUCUCGGGUGCCAA	0.466
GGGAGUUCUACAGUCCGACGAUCUUGAUUUACAGCAAGUAGAUAAAUAUUUGACUUGCAUGAAGAGAAGCAAUUUUGGGGAAGGGUUUGAAUUGUUUUCUUUAAAGAUGUAAUGUCCCUUUCAGAGACAGCUGUGGAAUUCUCGGGUGCCAA	0.917
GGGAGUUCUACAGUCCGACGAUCCAAAUGUUCUUAAAGACUUUUUGCUAUGUAGUAUCUACCUUGUAGAAACCUUGCAGAUUGCAGAGUUGAGAUGUGUUUUAUCUUUGUUUUAUAUUAAAAAGAUCUGUGGGUGGAAUUCUCGGGUGCCAA	0.537
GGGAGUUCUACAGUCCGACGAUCGGUGAGCCGAGCUGUGGUGGCGGCUGGUUUAAAAGGGAUCCAGUUUCCAGCUGCAGGUUUGUUAGAGUCUGUUCUACAUGGGCCUGCCCUCCUGUGAUGGGCAGAGGCUCUGGAAUUCUCGGGUGCCAA	0.418
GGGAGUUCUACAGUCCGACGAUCAGAGACGGGGUCUCGCAACAUUGCCCAGACUUCCUUUGUGUUAGUUAAUAAAGCUUUCUCAACUGCCUCAGCCUUGUGUGAGUUGAGGGGAGGUGUCACAUCCAGCUGGAUGGAAUUCUCGGGUGCCAA	0.385
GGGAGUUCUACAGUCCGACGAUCCACGGAUUCAUAUGGUACCUUCCUUCUAAACUUGAGGAAGGCAUUUGUCUUCCGGCUGCUCAGGGCUCUCACGCCCAGACCCUGCUUUAGAGUCCUGGAGUGACCACAGCUGGAAUUCUCGGGUGCCAA	0.238

Set 2 — target: CCNB1, cyclin fold, Cln2 fusion (human); method: yeast growth competition, sequencing; medium: yeast; setting: weak parent motif; baseline: not given; direction: higher = stronger binding
Starting sequence: WEE1 docking peptide (human); HKTFRKLRLFDTP
Variant	normalised enrichment score
H1P	0.737
T12A	0.125
T12D	0.527
T3I	0.0701
R8S	0.021
R5H	1.85
P13T	0.945
F4I	0.634
F4D	0.519
L9Q	1.04
K6W	0.829
T12K	-0.593
R8I	0.706
H1Y	0.392
H1M	-0.309
F10I	0.659
P13S	0.282
F4Y	0.501
D11C	1.11
H1F	-0.426
K6C	0.403
R5I	-0.273
T3P	0.59
L7I	0.975
R5M	0.513

Set 3 — target: DDIT3, bZIP domain (human); method: DHFR protein complementation; medium: yeast; baseline: wild-type JUN-FOS pair; direction: higher = stronger binding
Setting: single substitutions, most at no-binding floor
Starting sequence: JUN, bZIP domain (human); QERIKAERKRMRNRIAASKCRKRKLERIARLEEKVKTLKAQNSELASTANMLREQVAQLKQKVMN; partner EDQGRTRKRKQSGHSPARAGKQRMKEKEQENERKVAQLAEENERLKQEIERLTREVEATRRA
Variant	binding fitness [natural log]
E54D	-0.108
K36G	-0.233
L45P	-1.19
E54G	-0.0847
A40R	0.0719
R53C	-0.765
A29W	-0.149
E32D	-0.00514
K34N	-0.0902
V35T	-0.523
Q55N	-0.437
V35H	-0.538
L52D	-1.1
E54Y	-0.255
N42V	-1.03
E44P	-1.05
T37D	0.084
R30C	0.0343

Set 4 — method: protein-binding microarray; molecule type: double-stranded DNA, one strand shown; medium: in vitro; concentration: 940 nM top; setting: 60-bp whole probe; added: salmon DNA 0.4 mg/ml; baseline: random background probes; direction: higher = stronger binding; shared flanks, not repeated: GCCTAGCAC … GTCTTGATTCGCTTGACGCTGCTG
Target: Interferon regulatory factor 5, full length, phosphomimetic (IRF5, Homo sapiens, UniProt Q13568-2, residues 1-514, S451D/S453D/S456D/S462D)
Oligonucleotide	fitted relative affinity [z-score]
TTAGGACTGCCTTTCCTTTAGTGCTAG	0.0322
TTAGGTATCGGGTTTCTGTTAGTGCTA	6.01
ATAAACTTAGTTTTCAATTTGTGCTAG	0.0294
TTAGGTCTCCTACTGCTTGAGTGCTAG	-0.231
TTAGATATAGGGTATCGATTAGTGCTA	1.56
TTAGATATCGGAACTGGATTAGTGCTA	0.337
GAAGCCCTCCCTGTGGGGGGGTGCTAG	1.57
TCAAGTCTCAATATTAGACTGTGCTAG	1.51
TGAGGTATCCTTATCCTTTAGTGCTAG	0.0726
TTCTTTATGCACTCTCTACATGTGCTA	1.19
GACGGTTTCGGAGTGGGGACGTGCTAG	5.7
GACGATATCAGTCTCGGGACGTGCTAG	0.988
TTAGATCTCAGTTCCGATTAGTGCTAG	1.29
TATAGTTATTTTTATTAAAAGTGCTAG	0.473
TTAGAACCGAGTCTCGATTAGTGCTAG	2.98
TTAGGTCGCGGACTGGGTTAGTGCTAG	-0.397
TCAGGTATCGGTCTCGGTTAGTGCTAG	8.77
GACGGTCTCCTACTGCTTACGTGCTAG	0.104
TTAGGTATCGGTATCAGTTAGTGCTAG	9.76
TCATTTACAGGTTCTCTTACTGTGCTA	1.19

Set 5 — method: DHFR PCA, deep sequencing; medium: yeast; added: (+)-ABA 17 µM; baseline: wild-type fitted maximum; direction: higher = stronger binding
Target: ABI1, truncated, D143A, DHFR fusion (Arabidopsis thaliana)
Setting: methotrexate growth selection, single substitutions
Starting sequence: PYL1, truncated, DHFR fusion (Arabidopsis thaliana); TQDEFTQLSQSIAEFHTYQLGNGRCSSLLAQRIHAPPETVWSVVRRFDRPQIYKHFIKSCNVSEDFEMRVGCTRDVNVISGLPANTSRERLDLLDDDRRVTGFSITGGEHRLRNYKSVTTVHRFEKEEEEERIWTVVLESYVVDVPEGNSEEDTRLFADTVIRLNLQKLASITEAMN; partner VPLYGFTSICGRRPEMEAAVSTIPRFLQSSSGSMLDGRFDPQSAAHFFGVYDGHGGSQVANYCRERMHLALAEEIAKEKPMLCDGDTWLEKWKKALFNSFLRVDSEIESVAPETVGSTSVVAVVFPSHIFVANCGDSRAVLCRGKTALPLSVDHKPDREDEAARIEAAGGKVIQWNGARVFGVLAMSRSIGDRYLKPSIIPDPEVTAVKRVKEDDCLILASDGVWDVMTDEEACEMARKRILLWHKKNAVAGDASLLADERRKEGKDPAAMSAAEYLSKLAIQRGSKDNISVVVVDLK
Variant	relative binding score
V78S	6.83%
F15H	79.1%
E67T	81.4%
L20W	67%
Y115R	-0.701%
D3M	72.4%
R32K	84.4%
N165M	-15%
S80I	7.23%
F5S	71.3%
E131T	87.9%

Set 6 — method: RNAcompete; molecule type: RNA; medium: in vitro; concentration: 20 nM; setting: 7-mer, probes averaged, single round; baseline: mean of 7-mers; direction: higher = stronger binding
Target: PABPC1L2, full length, GST fusion (mouse, UniProt A0ABA7IW68)
Residues (chain): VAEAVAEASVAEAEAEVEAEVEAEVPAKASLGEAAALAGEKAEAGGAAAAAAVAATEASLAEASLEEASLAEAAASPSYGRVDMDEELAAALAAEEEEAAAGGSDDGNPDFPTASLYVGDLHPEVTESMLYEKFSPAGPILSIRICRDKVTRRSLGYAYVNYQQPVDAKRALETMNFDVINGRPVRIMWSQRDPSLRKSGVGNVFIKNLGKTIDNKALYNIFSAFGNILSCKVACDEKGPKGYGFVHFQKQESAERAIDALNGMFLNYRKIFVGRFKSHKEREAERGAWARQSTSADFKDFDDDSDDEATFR
Oligonucleotide	7-mer Z-score
GGACAGG	0.285
GGCGCUU	-0.179
ACGAACA	0.178
GCCUCGA	-0.222
UGGUAAU	-0.135
UAACAUG	-0.0989
GUGGAGU	-0.0192
GCCUGCC	-0.258
UAGCAAA	0.456
CGUUUUA	-0.42
UUUGUCU	-0.489
GAGUGAU	-0.121
GAUGCUU	-0.298
UAAGCAA	0.0352
AGGUGAA	0.171
ACCAGCU	-0.275
UCUGUGU	-0.383
GUUUGUC	-0.481
GCUGGCC	-0.162
AAAUCUU	0.57
ACACACG	-0.021
UCCGGUA	-0.0772
CCUGCCU	-0.418
AUUCGGA	-0.0554

Some of these lines once more (set 2):
Variant	normalised enrichment score
T12D	0.527
R8S	0.021
D11C	1.11
F10I	0.659
R5H	1.85
T3P	0.59
R5I	-0.273
F4I	0.634
